Assay results collected from several papers.
Each line is one published result; not all experiments were run side by side. Several values in a cell are separate wells, animals, samples, runs or records. ± marks the error that the study gave.

COc1ccc(C[C@@H](C)[C@@H](C)Cc2ccc(OC)c(OC)c2)cc1OC  Tmax (beagle dog male, plasma; oral, 300 mg/kg/day, day 1, median): 1 h
C[C@@H](Nc1cc(F)cc(F)c1)c1cc(C(=O)N(C)C)cc2c(=O)cc(N3CCOCC3)oc12  patients discontinuing for AE (CTCAE v4, item: confusional state; patients with advanced solid tumours; oral, dose not given, phase I dose finding): 1.6%
Cc1c(C(=O)O)ccc2c3n(nc12)[C@@H]1[C@H](C3)N(CC2CC2)[C@@]2(C(=O)Nc3cc(Cl)ccc32)[C@H]1c1cccc(Cl)c1F  plasma concentration (female BALB/c nude mice, plasma; oral, 2 mg/kg once daily, 2 h, SJSA-1 tumour-bearing): 2450 nM and 2230 nM and 2050 nM and 1780 nM
CC(C)c1nc(N(C)S(C)(=O)=O)nc(-c2ccc(F)cc2)c1/C=C/[C@@H](O)C[C@@H](O)CC(=O)O  plasma concentration (Wistar albino rat, both sexes, plasma; oral, 20 mg/kg, 2 h): 653 ng/mL
O=C(Nc1nc2cccc(-c3ccc(CN4CCS(=O)(=O)CC4)cc3)n2n1)C1CC1  treatment-emergent adverse events (item: aspartate aminotransferase increased; human rheumatoid arthritis patients; oral, 75 mg once daily, 4 weeks, regardless of relatedness): 0%
Cc1cc(-c2nnc(N)nc2-c2ccc(F)cc2)cc(Cl)n1  patients with immune-mediated AE (item: rash; IO-naive other solid tumour patients; oral, 100 mg once daily, treatment-related, grade 1): 5.3%
COc1ccc([C@@H](O)c2cc(-c3ncnc4cc(N5CCOCC5)ccc34)c(F)cc2Cl)nn1  investigations TEAE (locally advanced rectal cancer patients; 250 mg, with: capecitabine and radiotherapy): 50%
Cc1cc(-c2nccc3c2ccn3CC(=O)Nc2ccc(-c3cnccn3)cn2)ccn1  subjects with skin abrasion TEAEs (human; MAD part, 5 mg once daily): 0%
Cc1ccc(C(=O)Nc2ccnc(S(N)(=O)=O)c2)c(N2CCCC(F)(F)CC2)n1  unbound plasma concentration (rhesus monkey, plasma; oral, 3 mg/kg): 55 to 223 nM
CCN1CCN(Cc2ccc(NC(=O)c3ccc(C)c(NC(=O)c4cncc(-c5cccs5)c4)c3)cc2C(F)(F)F)CC1  Vz/F (C57BL/6 mouse, plasma; intraperitoneal, 15 mg/kg, single dose): 29.8 L/kg
C[C@H](CS)C(=O)N1CCC[C@H]1C(=O)O  mean blood pressure (male Hartley guinea pigs, anaesthetized; intravenous, 10 mg/kg group, baseline before infusion): 45 ± 0.4 mmHg
Cc1cc(NC(=O)c2cccc(NC(=O)/C=C/CN(C)C)c2)ccc1Nc1nccc(-c2cccnc2)n1  remaining compound (primary hepatocytes, rat Wistar male; 1 µM, 20 min): 87.8%
FC(F)(F)c1ccc(CNc2ccc(Cc3c[nH]c4ncc(Cl)cc34)cn2)cn1  adverse event incidence (item: aspartate aminotransferase increased; patients with advanced solid tumours; oral, dose not given, grade 3 and 4, possibly related to drug): 7%
OC[C@H]1O[C@@H](c2ccc(F)c(Cc3cc4ccccc4s3)c2)[C@H](O)[C@@H](O)[C@@H]1O  hypoglycaemia adverse events (Japanese type 1 diabetes patients; oral, 100 mg/day, day 13): 7 % patients
Cc1cccc(CNC(=O)c2cn(CCNC(=O)c3ccccc3Sc3c([N+](=O)[O-])ncn3C)c3cc4c(cc3c2=O)OCO4)n1  remaining compound (human, whole blood; 1 µM, 2 h): 81.9%
CC[C@H](C)[C@H](NC(=O)CN)C(=O)N[C@@H](CC(C)C)C(=O)N[C@@H](CC(=O)O)C(=O)N[C@@H](C)C(=O)N[C@H](C(=O)N[C@@H](CCCCN)C(=O)N[C@@H](C)C(=O)N[C@H](C(=O)N[C@@H](C)C(N)=O)[C@@H](C)CC)[C@@H](C)CC  mean residue ellipticity (circular dichroism at 222 nm; 30% TFE; 100 µM): -4520 deg cm2/dmol
CNC(=O)c1cc(Oc2ccc(NC(=O)Nc3cc(C(C)(C)C)nn3-c3ccc4ncccc4c3)c(F)c2)ccn1  patients with any AE of special interest (human; oral, dose not given, cycles 1 and 2, High Cmax subgroup): 89%
Cc1ccc([C@@H]2O[C@H](CO)[C@@H](O)[C@H](O)[C@H]2O)cc1Cc1ccc(-c2ccc(F)cc2)s1  urinary magnesium excretion change (Japanese type 2 diabetes patients; 25 mg, day 4, 24 h urine collection; relative to: baseline): -6.53 mg
Cc1cc(Nc2ccc(S(F)(F)(F)(F)F)cc2)n2nc(C(C)(F)F)nc2n1  patients with any adverse event (Plasmodium falciparum; P. falciparum malaria patients; oral, 250 mg): 63.6%
CC(C)C[C@H](NC(=O)C[C@H](O)[C@H](CC(C)C)NC(=O)[C@H](Cc1c[nH]cn1)NC(=O)CNC(=O)[C@@H](NC(=O)[C@H](C)NC(=O)[C@H](Cc1c[nH]c2ccccc12)NC(=O)[C@H](CCC(N)=O)NC(=O)[C@@H](Cc1ccccc1)NC(=O)COCCOCCNC(=O)CCC(C(=O)O)N1CCN(CC(=O)O)CCN(CC(=O)O)CCN(CC(=O)O)CC1)C(C)C)C(N)=O (stereo partly drawn) [lutetium-177 labelled]  tissue uptake (female BALB/c nu/nu mice, muscle; intravenous, 100 pmol, 4 h, with: PA 300 µg): 0.03 ± 0.01 %ID/g
OCCOCc1ccc(-c2noc(-c3ccc(OCC[18F])c(C(F)(F)F)c3)n2)cc1  effective dose (human, extrapolated from Macaca mulatta; 115 MBq, single injection): 2.6 mSv
CC[C@H]1[C@@H](O)[C@@H]2[C@H](CC[C@]3(C)[C@@H]([C@H](C)CCNC(=O)NS(=O)(=O)c4ccc(C(C)(C)C)cc4)CC[C@@H]23)[C@@]2(C)CC[C@@H](O)C[C@@H]12  Cmax (ABCB1 (Homo sapiens, UniProt P08183); human, plasma; dose not given, mean, alone): 33.2 ng/mL
CN(C)c1ccc2c(c1)c(=O)n(-c1ccc(C[C@H](NC(=O)c3c(Cl)cccc3Cl)C(=O)O)cc1)c(=O)n2C  unbound fraction (cynomolgus monkey, plasma): 0.013
COc1cc2c3c(n(CCCN4CCOCC4)c(=O)c2cc1OC)-c1cc2c(cc1C3=O)OCO2  CL (beagle dog, female, plasma; intravenous infusion, 50 mg/m^2, 1 h infusion, vehicle 2): 47.2 ± 12 L/h/m²
COC(=O)[C@@H]1[C@H]2C[C@H]3c4[nH]c5ccccc5c4CCN3C[C@@H]2CC[C@@H]1O  concentration (rat, plasma; intraperitoneal, 1 mg/kg, 1.5 h): 1100 nM
Cc1cc(C)c(CNC(=O)c2cc(Cl)c3c(c2C)O[C@@](C)([C@H]2CC[C@H](N(C)C)CC2)O3)c(=O)[nH]1  patients with TEAE (CTCAE v4.0, item: muscle spasms; human relapsed/refractory NHL; oral, 200 mg once daily, onset after cycle 1 day 1, overall treatment period): 16.7%
CC(C)NCC(O)COc1cccc2ccccc12 (stereo not drawn)  mean blood pressure (male Hartley guinea pigs, anaesthetized; intravenous, 1 mg/kg group, baseline before infusion): 37 ± 0.1 mmHg
C[C@@H]1COCCN1c1cc(C2([S@](C)(=N)=O)CC2)nc(-c2cc[nH]c3nccc2-3)n1  Vomiting incidence (Japanese advanced solid tumour patients; oral, 160 mg twice daily, any grade): 16.7%
CNC(=O)c1ccc(-c2cnc3ncc(Cc4ccc5ncccc5c4)n3n2)cc1F  patients with adverse event (item: Vomiting; cancer patients; oral, dose not given, dose escalation, grade 3-4): 3%
O=C(CCCN1CC=C(n2c(=O)[nH]c3ccccc32)CC1)c1ccc(F)cc1  mean blood pressure (male Hartley guinea pigs, anaesthetized; intravenous, 0.3 mg/kg group, baseline before infusion): 37 ± 0.1 mmHg
COc1cc2[nH]c(C)c(-c3ccccn3)c(=O)c2cc1Cl  Papp (PAMPA; pH 7.4): 38 ×10⁻⁶ cm/s
C=CC(=O)N(C)CCOc1c(N)ncnc1-c1cc(F)cc(NC(=O)c2ccc(C3CC3)cc2F)c1C  AUC(0-last) per dose (human; oral, 20 mg, day 7, geometric mean, with: ritonavir): 19.5 ng·h/mL/mg
CCc1cc(C(=O)NC)c2nccc(N3CCc4c(cc(Cn5ccnc5)cc4-c4cn(C)nc4C(F)(F)F)C3=O)c2c1  serum CREA level (Sprague Dawley rats; oral, 100 mg/kg twice daily, 7 days): 46.6 ± 1.7 µmol/L
O=C(N[C@H](Cc1c[nH]c2ccccc12)C(=O)Nc1ccncc1)c1ccc(-c2cc(C(F)(F)F)ccc2F)cc1F  concentration (Swiss Webster mouse, female, heart; oral, 50 mg/kg, 8 h, 20% HPβCD vehicle): 940 nM
CCc1cc2ncc(CN3CCN(c4ccc(C(=O)NC)nc4)CC3)cc2[nH]c1=O  white blood cell count ratio (female rat, blood; oral, 50 mg/kg/day, 4 weeks; relative to: vehicle control): 0.64
Cc1ccc(Sc2ccccc2N2CCNCC2)c(C)c1  adverse event incidence (TEAE vomiting; healthy adult men; oral, 10 mg single dose, 8 nights, fed): 5.3%
C=CCN1CC(=O)N2[C@@H](Cc3ccc(O)cc3F)C(=O)N(Cc3cccc(N4CC(N5CCN(CC)CC5)C4)n3)C[C@@H]2N1C(=O)NCc1ccccc1  treatment-related adverse events (item: Diarrhea; advanced solid tumour patients; oral, 100 mg twice daily, expansion part, grade ≥3): 0%
Cc1c(-c2ccc(N3CCc4cccc(C(=O)Nc5nc6ccccc6s5)c4C3)nc2C(=O)O)cnn1CC12CC3(C)CC(C)(C1)CC(OCCNCC[C@H](O)CO)(C3)C2  plasma concentration (anaesthetized male beagle dog; iv infusion, 0.01 mg/kg/min, 45 min): < 2 ng/mL
CNC(=O)c1ccc(-c2cnc3ncc(Cc4ccc5ncccc5c4)n3n2)cc1F  Constipation dose reduction/interruption (Japanese patients; oral, 400 mg, any grade): 1%
CC(C)(C(=O)N1CCOc2c(C#N)cncc2C1)C(F)F  subjects with adverse event (item: Psychiatric disorders; human; oral, 15 mg twice daily, 14 days, multiple ascending dose): 12.5%
CNCc1ccc(-c2[nH]c3cc(F)cc4c3c2CCNC4=O)cc1  constipation incidence (patients; oral, 480 mg twice daily, all grades): 22.2%
COC(=O)/C=C/c1cc(C(=O)NCc2ccc(C)cc2)cc(-c2ccc3ncnn3c2)c1  remaining parent compound (human, liver microsomes; 1 µg/mL, 60 min, pH 7.4, 0.5 mg/mL protein, with: NADPH): ~25%
CCOc1c([C@H](C)n2nc(C)c3c(N)ncnc32)cc(Cl)c(F)c1[C@@H]1CNC(=O)C1  patients (item: QTcF change ≤30 ms; previously treated B-cell malignancy; oral, 10 mg once daily, baseline QTcF ≤450 ms; relative to: baseline): 100%
Cc1ccc(O)c(-n2nc3ccccc3n2)c1  mean daily dermal uptake (exposure assessment; human, age 11-16 years; sunscreen): 764 ng/kg body weight/day
CCNC(=O)c1ncccc1O  pKa (acidic): 7.9
CN1CCN(c2cccc3c2CCN(C(=O)/C=C/c2c(-n4cnnn4)ccc(Cl)c2F)[C@@H]3C(=O)Nc2ccc(C(=O)O)cc2)C(=O)C1  upper respiratory infection subjects (healthy human subjects; intravenous infusion, 3 mg/h, 5 days, study): 0%
C[C@@H]1O[C@@H](O[C@H]2[C@H](Oc3cc(O)c4c(c3)O[C@H](c3ccc(O)cc3)CC4=O)O[C@H](CO)[C@@H](O)[C@@H]2O)[C@H](O)[C@H](O)[C@H]1O  Papp (PBS receiver; 50 mg/mL, 30 min, pH 6.8): 0.207 ± 0.5 ×10⁻⁶ cm/s
COc1cc2[nH]c(C)c(-c3ccc(C)cc3C)c(=O)c2cc1Cl  Papp (PAMPA; pH 7.4): 549 ×10⁻⁶ cm/s
CN1C(C(=O)Nc2cccc(F)n2)=C(O)c2ccccc2S1(=O)=O  pKa (acidic): 3.6
Cc1cc(NC2CCN(C(=O)OC3CCN(C(=O)/C=C/CN(C)C)C3)CC2)n2ncc(C(C)C)c2n1 (stereo not drawn)  patients with adverse event (Phase I dose escalation CTCAE v4.0, item: Vomiting; patients with advanced solid tumours; dose not given, TIW dosing any grade): 18%
Cc1ccc(C(=O)N(CCCN)C(c2nc3snc(C)c3c(=O)n2Cc2ccccc2)C(C)C)cc1 (stereo not drawn)  patients with adverse event (mucosal inflammation grade ≥3 (CTCAE); human patients; intravenous, 4 mg/day): 0%

Some of these lines once more:
C=CCN1CC(=O)N2[C@@H](Cc3ccc(O)cc3F)C(=O)N(Cc3cccc(N4CC(N5CCN(CC)CC5)C4)n3)C[C@@H]2N1C(=O)NCc1ccccc1  treatment-related adverse events (item: Diarrhea; advanced solid tumour patients; oral, 100 mg twice daily, expansion part, grade ≥3): 0%
Cc1c(-c2ccc(N3CCc4cccc(C(=O)Nc5nc6ccccc6s5)c4C3)nc2C(=O)O)cnn1CC12CC3(C)CC(C)(C1)CC(OCCNCC[C@H](O)CO)(C3)C2  plasma concentration (anaesthetized male beagle dog; iv infusion, 0.01 mg/kg/min, 45 min): < 2 ng/mL
CNC(=O)c1ccc(-c2cnc3ncc(Cc4ccc5ncccc5c4)n3n2)cc1F  Constipation dose reduction/interruption (Japanese patients; oral, 400 mg, any grade): 1%
CC(C)(C(=O)N1CCOc2c(C#N)cncc2C1)C(F)F  subjects with adverse event (item: Psychiatric disorders; human; oral, 15 mg twice daily, 14 days, multiple ascending dose): 12.5%
CNCc1ccc(-c2[nH]c3cc(F)cc4c3c2CCNC4=O)cc1  constipation incidence (patients; oral, 480 mg twice daily, all grades): 22.2%
